Published values gathered from unrelated publications.
Each line is one published result; not all experiments were run side by side. Numbers after ± are the reported error.

SMILES	test	test system	conditions	logD
CC1(C)OC[C@H](c2ccc3ccccc3c2)N[C@@H]1c1cccc(F)c1	shake-flask, 1-octanol/buffer	–	pH 7.4	> 4.7
Cc1cc(C)c(S(=O)(=O)N(C)CC(=O)N2CCC(C(N)=O)CC2)c(C)c1	–	octanol/buffer	pH 7.4	1.33
Cc1ccc(Nc2ncnc3ccc(-c4cccc(N5CCOCC5)c4)cc23)cc1	shake flask	1-octanol/phosphate buffer	pH 7.4	> 4.1
O=C(Nc1ccc(F)cc1)N1CCNCC1COc1ccc2ccccc2c1 (stereo not shown)	experimental partition	–	pH 7.4	3.23 ± 0.03
O=C(O)c1cc(-c2ccc(-c3ccncc3)cc2)c2ccc(-c3ccc(C(F)(F)F)cc3)cc2c1	HPLC retention	–	pH 7.4	1.18
Cc1ccc(N(c2ccc(NC(=O)CN(C)c3ccccc3N3CCCC3=O)cc2)C(C)C)cc1	shake-flask	–	–	5.7
CO[C@]1(C(=O)N[C@@H](C)c2ccc(-n3cc(F)cn3)nc2)CC[C@H](c2nc(C)cc(Nc3cc(C)[nH]n3)n2)CC1	–	–	pH 7.4	3.82
CCCCOC(=O)/C=C/C(=O)NNC(=O)CCc1ccccc1C(=O)N[C@H](C)c1cccc2ccccc12	–	–	–	4.3
COc1ccc(NC(=O)c2ccco2)cc1NC(=O)c1cccnc1	–	octanol/buffer	pH 7.4	1.67
COc1cccnc1-c1nc2ccccn2c1N(C)c1ccc(F)cc1	–	–	pH 7.4	3.6
COc1ccc(C(=O)N2CCCCC2)cc1	shake-flask	1-octanol/water	–	1.89
COc1cc2[nH]c(C)c(-c3ccc(F)cc3F)c(=O)c2cc1Cl	chromatographic	–	pH 7.4	2.6
COc1ccc(NC(=O)CCSc2nnc3scc(-c4ccc(C)cc4)n23)cc1	–	octanol/buffer	pH 7.4	3.68
COc1cc2[nH]c(C)c(-c3ccc(N4CCN(C)CC4)nc3)c(=O)c2cc1Cl	chromatographic	–	pH 7.4	1.9
O=C(O)c1cc(-c2ccc(-c3c[nH]nn3)cc2)c2ccc(-c3ccc(C(F)(F)F)cc3)cc2c1	HPLC retention	–	pH 7.4, chromatographic logD	0.35 ± 0.02
COc1cc2[nH]c(C)c(-c3ccc(C)cc3)c(=O)c2cc1Cl	chromatographic	–	pH 7.4	2.8
Cc1ccc(N(C)c2ccc(NC(=O)CN(C)c3cc(F)ccc3N3CCCC3=O)cc2)cc1	shake-flask	–	–	5
CCOC(=O)N1C[C@@H](C2CCCC2)N[C@@H](c2ccc(C(C)(C)C)cc2)C1	shake-flask, 1-octanol/buffer	–	pH 7.4	> 4.7
CC(C)C[C@@H](NC(=O)[C@H](C)NC(=O)CNC(=O)[C@@H](NC=O)C(C)C)C(=O)N[C@@H](C)C(=O)N[C@@H](C(=O)N[C@H](C(=O)N[C@@H](C(=O)N[C@@H](Cc1c[nH]c2ccccc12)C(=O)N[C@H](CC(C)C)C(=O)N[C@@H](Cc1c[nH]c2ccccc12)C(=O)N[C@H](CC(C)C)C(=O)N[C@@H](Cc1c[nH]c2ccccc12)C(=O)N[C@@H](C(=O)N[C@@H](Cc1c[nH]c2ccccc12)C(=O)NCCO)C(C)C)[C@H](C)O)C(C)C)C(C)C	UHPLC retention on C18	–	–	4.31
CC(C)CC(=O)N[C@H](C(=O)N[C@H](C(=O)N[C@@H](CC(C)C)[C@@H](O)CC(=O)N[C@@H](C)C(=O)N[C@@H](CC(C)C)[C@@H](O)CC(=O)NCCCC[C@H](NC(=O)CCOCCOCCNC(=O)CN1CCN(CC(=O)O)CCN(CC(=O)O)CC1)C(=O)O)C(C)C)C(C)C [gallium-68 labelled]	–	PBS	–	-1.66 ± 0.18
COc1cc2[nH]c(C)c(-c3ccccc3OC(F)(F)F)c(=O)c2cc1Cl	chromatographic	–	pH 7.4	3
Cc1c(NC(=O)C2CCCN2S(=O)(=O)c2ccccc2)c(=O)n(-c2ccccc2)n1C (stereo not shown)	–	octanol/buffer	pH 7.4	1.14
Cc1cccc([C@H]2N[C@@H](C3CCCCC3)CO[C@@H]2C)c1	shake-flask, 1-octanol/buffer	–	pH 7.4	> 4.7
COc1cc2[nH]c(C)c(-c3c(C)cc(C)cc3C)c(=O)c2cc1Cl	chromatographic	–	pH 7.4	3.3
Cc1cc(Cl)cc2sc(N(CC3CCNCC3)C(=O)c3ccco3)nc12	–	–	–	1.48
N#Cc1ccccc1[C@@H]1COCC2(CCOCC2)N1	shake-flask, 1-octanol/buffer	–	pH 7.4	< -1

SMILES	test	test system	conditions	logD
O=C(COc1ccccc1[N+](=O)[O-])Nc1ccccc1N1CCOCC1	–	octanol/buffer	pH 7.4	3.08
COc1cc2[nH]c(C)c(-c3ccc(OC(F)(F)F)cc3)c(=O)c2cc1Cl	chromatographic	–	pH 7.4	3.4
Clc1cc(Cl)cc([C@@H]2COC[C@]3(CC[C@H](c4ccccc4)CC3)N2)c1	shake-flask, 1-octanol/buffer	–	pH 7.4	> 4.7
CCOc1cc(CC(=O)N[C@@H](CC(C)C)c2ccccc2N2CCCCC2)ccc1C(=O)O	miniaturised shake-flask	1-octanol/water	–	2.5
COc1cc2[nH]c(C)c(-c3c(C)noc3C)c(=O)c2cc1Cl	chromatographic	–	pH 7.4	1.8
O=C(CSc1nnc(-c2ccc([N+](=O)[O-])cc2)n1-c1ccccc1)N1CCOCC1	–	octanol/buffer	pH 7.4	1.87
CN1C(C(=O)Nc2nccs2)=C(O)c2ccccc2S1(=O)=O	miniaturised shake-flask	1-octanol/water	–	-0.9
O=C(CNc1cccc2c1C(=O)N(C1CCC(=O)NC1=O)C2=O)NCCCCCCN1CCc2c(c3ccccc3n2Cc2ccc(C(=O)NO)cc2)C1 (stereo not shown)	HPLC-based method	–	pH 7.4	1.8
C[C@@H](NC(=O)c1ccccc1CCC(=O)NNC(=O)/C=C/C(=O)OCc1ccccc1)c1cccc2ccccc12	–	–	–	4.5
CN1C(C(=O)Nc2ccccn2)=C(O)c2sc(Cl)cc2S1(=O)=O	miniaturised shake-flask	1-octanol/water	–	1.1
CC1(C)NC(=O)N(c2ccc(F)c(C(C)(F)F)c2)C1=O	chromatographic HPLC	–	pH 7.4	2.6
COc1ccccc1NC(=O)CSc1nnc(-c2ccc([N+](=O)[O-])cc2)n1-c1ccccc1	–	octanol/buffer	pH 7.4	3.69
CN(CCCCCCNC(=O)COc1ccc(C2CCC(=O)NC2=O)cc1)Cc1cn(Cc2ccc(C(=O)NO)cc2)c2ccccc12 (stereo not shown)	HPLC-based method	–	pH 7.4	1.2
CCC(CC)[C@@H]1COC[C@]2(CC[C@H](c3ccccc3)CC2)N1	shake-flask, 1-octanol/buffer	–	pH 7.4	> 4.7
Cc1cc(NC(=O)C2=C(O)c3ccccc3S(=O)(=O)N2C)no1	miniaturised shake-flask	1-octanol/water	–	0.5
C[C@@H](NC(=O)c1ccccc1CCC(=O)NNC(=O)/C=C/C(=O)OCc1ncccn1)c1cccc2ccccc12	–	–	–	2.8
Cc1nn(C)cc1S(=O)(=O)NC(=O)c1ccc(-n2ccc(OCC(C)(C)C(F)(F)F)n2)nc1N1C[C@@H](C)CC1(C)C	miniaturised shake-flask	1-octanol/water	–	> 4.7
C[C@@H](NC(=O)c1ccccc1CCC(=O)NNC(=O)/C=C/C(=O)OCCC(F)(F)F)c1cccc2ccccc12	–	–	–	3
N=C(N)NS(=O)(=O)c1ccc(N/C=C2\C(=O)Nc3ccccc32)cc1	–	octanol/buffer	pH 11	1.72
COc1cc2[nH]c(C)c(-c3ccc(O)cc3)c(=O)c2cc1Cl	chromatographic	–	pH 7.4	1.8
CC(C)(C)c1ccc([C@@H]2COC[C@H](c3ccc(F)c(C#N)c3)N2)cc1	shake-flask, 1-octanol/buffer	–	pH 7.4	> 4.7
CN1CCN(c2cccc(-c3ccc4ncnc(Nc5ccc([N+](=O)[O-])c(C(F)(F)F)c5)c4c3)c2)CC1	shake flask	1-octanol/phosphate buffer	pH 7.4	> 3.9
O=C(O)CNC(=O)c1ncc(-c2ccc(Cl)cc2)cc1O	miniaturised shake-flask	1-octanol/water	–	0.3
Cc1cc(Nc2ccc3c(c2)CCCC3)n2ccnc2n1	–	–	–	4
CC1(C)OC[C@@H](c2ccc(C(F)(F)F)cc2)N[C@@H]1c1ccc(Cl)c(Cl)c1	shake-flask, 1-octanol/buffer	–	pH 7.4	> 4.7
O=C(O)CNC(=O)c1ncccc1O	miniaturised shake-flask	1-octanol/water	–	-3.6

For quick reference, copied from above:
SMILES	test	test system	conditions	logD
O=C(O)c1cc(-c2ccc(-c3ccncc3)cc2)c2ccc(-c3ccc(C(F)(F)F)cc3)cc2c1	HPLC retention	–	pH 7.4	1.18
CN1CCN(c2cccc(-c3ccc4ncnc(Nc5ccc([N+](=O)[O-])c(C(F)(F)F)c5)c4c3)c2)CC1	shake flask	1-octanol/phosphate buffer	pH 7.4	> 3.9
Cc1cc(NC(=O)C2=C(O)c3ccccc3S(=O)(=O)N2C)no1	miniaturised shake-flask	1-octanol/water	–	0.5
CC1(C)NC(=O)N(c2ccc(F)c(C(C)(F)F)c2)C1=O	chromatographic HPLC	–	pH 7.4	2.6
COc1ccc(NC(=O)CCSc2nnc3scc(-c4ccc(C)cc4)n23)cc1	–	octanol/buffer	pH 7.4	3.68
O=C(COc1ccccc1[N+](=O)[O-])Nc1ccccc1N1CCOCC1	–	octanol/buffer	pH 7.4	3.08
CC(C)C[C@@H](NC(=O)[C@H](C)NC(=O)CNC(=O)[C@@H](NC=O)C(C)C)C(=O)N[C@@H](C)C(=O)N[C@@H](C(=O)N[C@H](C(=O)N[C@@H](C(=O)N[C@@H](Cc1c[nH]c2ccccc12)C(=O)N[C@H](CC(C)C)C(=O)N[C@@H](Cc1c[nH]c2ccccc12)C(=O)N[C@H](CC(C)C)C(=O)N[C@@H](Cc1c[nH]c2ccccc12)C(=O)N[C@@H](C(=O)N[C@@H](Cc1c[nH]c2ccccc12)C(=O)NCCO)C(C)C)[C@H](C)O)C(C)C)C(C)C	UHPLC retention on C18	–	–	4.31
Cc1c(NC(=O)C2CCCN2S(=O)(=O)c2ccccc2)c(=O)n(-c2ccccc2)n1C (stereo not shown)	–	octanol/buffer	pH 7.4	1.14
